Results of several laboratories.
Lines come from different studies, so protocols differ. Numbers after ± are the reported error.

| SMILES | organism | assay | system | conditions | scale | endpoint | value |
| --- | --- | --- | --- | --- | --- | --- | --- |
| CN1CC23C4C5CC5C5C4C4C2C2CC2C4C53C1 (centres unmarked) | Influenza A virus | viral replication | MDCK, H3N2 A/HK/7/87 | – | – | EC50 | > 100 µM |
| CNc1nc(SC)nc2ccccc12 | Haemophilus influenzae | microbial growth, broth dilution | H128 | – | – | MIC | > 64 µM |
| CC[C@H](C)[C@H](NC(=O)[C@H](CCC(N)=O)NC(=O)[C@@H]1CCCN1C(=O)[C@@H](NC(=O)[C@@H](NC(=O)[C@H](Cc1ccc(O)cc1)NC(=O)[C@H](C)NC(=O)[C@H](C)NC(=O)[C@H](CC(C)C)NC(=O)[C@H](CCCCN)NC(=O)[C@H](C)NC(=O)[C@H](CC(C)C)NC(=O)[C@H](CC(C)C)NC(=O)CNC(=O)[C@@H](NC(=O)[C@@H](N)Cc1ccccc1)C(C)C)C(C)C)[C@@H](C)CC)C(=O)N[C@H](C(=O)N[C@@H](CCCCN)C(=O)N[C@@H](CCCNC(=N)N)C(=O)N[C@@H](Cc1ccccc1)C(=O)N[C@@H](CCC(N)=O)C(=O)N[C@@H](CCCCN)C(=O)N[C@@H](CCCCN)C(=O)N[C@@H](CCCCN)C(N)=O)C(C)C | Aspergillus flavus | ATP luminescence | ATCC 9170 | 48 h, 37 °C | – | MIC | > 50 µM |
| CC(C)c1ccc2c(c1)CC[C@H]1[C@](C)(C(=O)OCC#CCN3CCCC3)CCC[C@]21C | Influenza A virus | viral replication | MDCK, A/Puerto Rico/8/34 (H1N1) | – | – | IC50 | 46.2 µM |
| CC(=N)N1CC23C4C=CC5C4C4C2C=CC4C53C1 | Influenza A virus | viral replication | MDCK, H3N2 A/HK/7/87 | – | – | EC50 | > 100 µM |
| c1cc2c(s1)CCOC21CCN(Cc2ccc3c(c2)OCCO3)CC1 | Haemophilus influenzae | broth microdilution | H128 AcrA- | – | – | MIC | 64 µM |
| CC[C@H](C)[C@H](NC(=O)[C@H](CCC(N)=O)NC(=O)[C@@H]1CCCN1C(=O)[C@@H](NC(=O)[C@@H](NC(=O)[C@H](Cc1ccccc1)NC(=O)[C@H](C)NC(=O)[C@H](C)NC(=O)[C@H](CC(C)C)NC(=O)[C@H](CCCNC(=N)N)NC(=O)[C@H](C)NC(=O)[C@H](CC(C)C)NC(=O)[C@H](CC(C)C)NC(=O)CNC(=O)[C@@H](NC(=O)[C@@H](N)Cc1ccccc1)C(C)C)C(C)C)[C@@H](C)CC)C(=O)N[C@H](C(=O)N[C@@H](CCCCN)C(=O)N[C@@H](CCCNC(=N)N)C(=O)N[C@@H](Cc1ccccc1)C(=O)N[C@@H](CCC(N)=O)C(=O)N[C@@H](CCCCN)C(=O)N[C@@H](CCCCN)C(=O)N[C@@H](CC(N)=O)C(N)=O)C(C)C | Aspergillus flavus | ATP luminescence | ATCC 9170 | 48 h, 37 °C | – | MIC | > 50 µM |
| CCC1(CC)C2CC3CC(C2)CC1(N(C)C)C3 | Influenza A virus | viral replication | A/PR/8/34 parent allantoic stock | pH 4.9 | – | EC50 | 1 ± 0.3 µM |
| CC(C)C1=C[C@@]23CC[C@@H]4[C@](C)(CCC[C@@]4(C)C(=O)OCC#CCN4CCOCC4)[C@H]2C[C@@H]1[C@H]1C(=O)OC(=O)[C@H]13 | Influenza A virus | – | MDCK, A/Puerto Rico/8/34 (H1N1) | – | reference: CC50 over IC50 | selectivity index | 3.09 |
| CONC(=O)[C@H]1[C@@H](O)[C@@]2(O)c3c(OC)cc(OC)cc3O[C@@]2(c2ccc(OC)cc2)[C@@H]1c1ccccc1 | Human coronavirus 229E | – | – | concentration not given | – | nucleocapsid protein level | decreased |
| CC[C@H](C)[C@@H]1NC(=O)[C@H](CC(C)C)NC(=O)[C@@H](NC(=O)[C@H](CO)NC(=O)[C@H](CCCNC(=N)N)NC(=O)[C@@H](N)CO)CSSC[C@@H](C(=O)N[C@@H](CCC(N)=O)C(=O)N[C@@H](CCCNC(=N)N)C(=O)N[C@@H](CC(C)C)C(=O)N[C@@H](Cc2ccccc2)C(N)=O)NC(=O)[C@H](C(C)C)NC(=O)[C@H]([C@@H](C)CC)NC(=O)[C@H](CC(C)C)NC(=O)[C@@H](NC(=O)[C@H](CO)NC(=O)[C@H](CCCNC(=N)N)NC(=O)[C@@H](N)CO)CSSC[C@@H](C(=O)N[C@@H](CCC(N)=O)C(=O)N[C@@H](CCCNC(=N)N)C(=O)N[C@@H](CC(C)C)C(=O)N[C@@H](Cc2ccccc2)C(N)=O)NC(=O)[C@H](C(C)C)NC1=O | Listeria monocytogenes | broth microdilution | ATCC BAA-679 (EGD-e) | – | – | MIC | 12.5 µg/mL |
| CN1CC23C4C=CC5C4C4C2C=CC4C53C1 | Influenza A virus | viral replication | MDCK, A/Ned/378/05 (H1N1) | – | – | EC50 | 7 µM |
| O=C(NC12CC3CC(CC(C3)C1)C2)c1cc2cc(Cl)ccc2[nH]1 | Haemophilus influenzae | microbial growth, broth dilution | H128 | – | – | MIC | > 64 µM |
| CC[C@H](C)[C@H](NC(=O)[C@H](CCCNC(=N)N)NC(=O)[C@H](CCCCN)NC(=O)[C@H](CC(C)C)NC(=O)[C@H](CC(C)C)NC(=O)CN)C(=O)N[C@@H](CCCCN)C(=O)N[C@H](C(=O)N[C@@H](CC(C)C)C(=O)N[C@@H](CC(C)C)C(=O)NCCCC[C@H](NC(=O)[C@H](CC(C)C)NC(=O)[C@H](CC(C)C)NC(=O)[C@@H](NC(=O)[C@H](CCCCN)NC(=O)[C@@H](NC(=O)[C@H](CCCNC(=N)N)NC(=O)[C@H](CCCCN)NC(=O)[C@H](CC(C)C)NC(=O)[C@H](CC(C)C)NC(=O)CN)[C@@H](C)CC)[C@@H](C)O)C(=O)NCCCC[C@H](NC(=O)[C@H](CCCCNC(=O)[C@H](CC(C)C)NC(=O)[C@H](CC(C)C)NC(=O)[C@@H](NC(=O)[C@H](CCCCN)NC(=O)[C@@H](NC(=O)[C@H](CCCNC(=N)N)NC(=O)[C@H](CCCCN)NC(=O)[C@H](CC(C)C)NC(=O)[C@H](CC(C)C)NC(=O)CN)[C@@H](C)CC)[C@@H](C)O)NC(=O)[C@H](CC(C)C)NC(=O)[C@H](CC(C)C)NC(=O)[C@@H](NC(=O)[C@H](CCCCN)NC(=O)[C@@H](NC(=O)[C@H](CCCNC(=N)N)NC(=O)[C@H](CCCCN)NC(=O)[C@H](CC(C)C)NC(=O)[C@H](CC(C)C)NC(=O)CN)[C@@H](C)CC)[C@@H](C)O)C(N)=O)[C@@H](C)O | Klebsiella pneumoniae | checkerboard | ATCC 700603 | added: gentamicin | – | FIC index | 0.375 |
| CCN(CC)CC#CCOC(=O)[C@]1(C)CCC[C@]2(C)c3ccc(C(C)C)cc3CC[C@@H]12 | Influenza A virus | – | MDCK, A/Puerto Rico/8/34 (H1N1) | – | reference: CC50 over IC50 | selectivity index | 1 |
| CCCCCC(=O)NCC(=O)N[C@@H](CC(C)C)C(=O)N[C@@H](CC(C)C)C(=O)N[C@@H](CCCCN)C(=O)N[C@@H](CCCNC(=N)N)C(=O)N[C@H](C(=O)N[C@@H](CCCCN)C(=O)N[C@H](C(=O)N[C@@H](CC(C)C)C(=O)N[C@@H](CC(C)C)C(=O)NCCCC[C@H](NC(=O)[C@H](CCCCNC(=O)[C@H](CC(C)C)NC(=O)[C@H](CC(C)C)NC(=O)[C@@H](NC(=O)[C@H](CCCCN)NC(=O)[C@@H](NC(=O)[C@H](CCCNC(=N)N)NC(=O)[C@H](CCCCN)NC(=O)[C@H](CC(C)C)NC(=O)[C@H](CC(C)C)NC(=O)CNC(=O)CCCCC)[C@@H](C)CC)[C@@H](C)O)NC(=O)[C@H](CC(C)C)NC(=O)[C@H](CC(C)C)NC(=O)[C@@H](NC(=O)[C@H](CCCCN)NC(=O)[C@@H](NC(=O)[C@H](CCCNC(=N)N)NC(=O)[C@H](CCCCN)NC(=O)[C@H](CC(C)C)NC(=O)[C@H](CC(C)C)NC(=O)CNC(=O)CCCCC)[C@@H](C)CC)[C@@H](C)O)C(N)=O)[C@@H](C)O)[C@@H](C)CC | Klebsiella pneumoniae | checkerboard | ATCC 700603 | added: polymyxin B | – | FIC index | 0.125 |
| CN[C@H](CC(C)C)C(=O)N[C@H]1C(=O)N[C@@H](CC(N)=O)C(=O)N[C@H]2C(=O)N[C@H]3C(=O)N[C@H](C(=O)N[C@H](C(=O)O)c4cc(O)cc(O)c4-c4cc3ccc4O)[C@H](O)c3ccc(c(Cl)c3)Oc3cc2cc(c3O)Oc2ccc(cc2Cl)[C@H]1O | Influenza A virus H3N2 | viral replication | MDCK, X-31 | 72 h | – | EC50 | 58 ± 22 µM |
| N=C(N)NCC12C3CCC4C3C3C(CCC31)C42 | Influenza A virus | viral replication | MDCK, H3N2 A/HK/7/87 | – | – | EC50 | > 100 µM |
| CCCCCC(=O)NCC(=O)N[C@@H](CC(C)C)C(=O)N[C@@H](CC(C)C)C(=O)N[C@@H](CCCCN)C(=O)N[C@@H](CCCNC(=N)N)C(=O)N[C@H](C(=O)N[C@@H](CCCCN)C(=O)N[C@H](C(=O)N[C@@H](CC(C)C)C(=O)N[C@@H](CC(C)C)C(=O)NCCCC[C@H](NC(=O)[C@H](CC(C)C)NC(=O)[C@H](CC(C)C)NC(=O)[C@@H](NC(=O)[C@H](CCCCN)NC(=O)[C@@H](NC(=O)[C@H](CCCNC(=N)N)NC(=O)[C@H](CCCCN)NC(=O)[C@H](CC(C)C)NC(=O)[C@H](CC(C)C)NC(=O)CNC(=O)CCCCC)[C@@H](C)CC)[C@@H](C)O)C(N)=O)[C@@H](C)O)[C@@H](C)CC | Klebsiella pneumoniae | checkerboard | ATCC 700603 | added: rifampicin | – | FIC index | 0.25 |
| c1ccc(CNCC23C4CCC5C4C4C(CCC42)C53)cc1 | Influenza A virus | viral replication | MDCK, H1N1 A/PR/8/34 | – | – | EC50 | > 100 µM |
| CCCCCCCCCC(=O)NCC(=O)N[C@@H](CC(C)C)C(=O)N[C@@H](CC(C)C)C(=O)N[C@@H](CCCCN)C(=O)N[C@@H](CCCNC(=N)N)C(=O)N[C@H](C(=O)N[C@@H](CCCCN)C(=O)N[C@H](C(=O)N[C@@H](CC(C)C)C(=O)N[C@@H](CC(C)C)C(N)=O)[C@@H](C)O)[C@@H](C)CC | Klebsiella pneumoniae | checkerboard | ATCC 700603 | added: gentamicin | – | FIC index | 0.75 |
| CC(=N)N1CC23C4CCC5C4C4C2CCC4C53C1 | Influenza A virus | viral replication | MDCK, H1N1 A/PR/8/34 | – | – | EC50 | ≤ 2.3 µM |
| CCCC(=O)NCC(=O)N[C@@H](CC(C)C)C(=O)N[C@@H](CC(C)C)C(=O)N[C@@H](CCCCN)C(=O)N[C@@H](CCCNC(=N)N)C(=O)N[C@H](C(=O)N[C@@H](CCCCN)C(=O)N[C@H](C(=O)N[C@@H](CC(C)C)C(=O)N[C@@H](CC(C)C)C(=O)NCCCC[C@H](NC(=O)[C@H](CCCCNC(=O)[C@H](CC(C)C)NC(=O)[C@H](CC(C)C)NC(=O)[C@@H](NC(=O)[C@H](CCCCN)NC(=O)[C@@H](NC(=O)[C@H](CCCNC(=N)N)NC(=O)[C@H](CCCCN)NC(=O)[C@H](CC(C)C)NC(=O)[C@H](CC(C)C)NC(=O)CNC(=O)CCC)[C@@H](C)CC)[C@@H](C)O)NC(=O)[C@H](CC(C)C)NC(=O)[C@H](CC(C)C)NC(=O)[C@@H](NC(=O)[C@H](CCCCN)NC(=O)[C@@H](NC(=O)[C@H](CCCNC(=N)N)NC(=O)[C@H](CCCCN)NC(=O)[C@H](CC(C)C)NC(=O)[C@H](CC(C)C)NC(=O)CNC(=O)CCC)[C@@H](C)CC)[C@@H](C)O)C(N)=O)[C@@H](C)O)[C@@H](C)CC | Klebsiella pneumoniae | checkerboard | ATCC 700603 | added: rifampicin | – | FIC index | 0.375 |

Excerpt of the above:
| SMILES | organism | assay | system | conditions | scale | endpoint | value |
| --- | --- | --- | --- | --- | --- | --- | --- |
| CCC1(CC)C2CC3CC(C2)CC1(N(C)C)C3 | Influenza A virus | viral replication | A/PR/8/34 parent allantoic stock | pH 4.9 | – | EC50 | 1 ± 0.3 µM |
| CC(C)C1=C[C@@]23CC[C@@H]4[C@](C)(CCC[C@@]4(C)C(=O)OCC#CCN4CCOCC4)[C@H]2C[C@@H]1[C@H]1C(=O)OC(=O)[C@H]13 | Influenza A virus | – | MDCK, A/Puerto Rico/8/34 (H1N1) | – | reference: CC50 over IC50 | selectivity index | 3.09 |
| CONC(=O)[C@H]1[C@@H](O)[C@@]2(O)c3c(OC)cc(OC)cc3O[C@@]2(c2ccc(OC)cc2)[C@@H]1c1ccccc1 | Human coronavirus 229E | – | – | concentration not given | – | nucleocapsid protein level | decreased |
